Measurements gathered from unrelated publications.
Protocols differ between the studies behind these lines. Several values in a cell are separate wells, animals, samples, runs or records. Numbers after ± are the reported error.
Cell line: HeLa

| Compound | test | conditions | how to read | quantity | value |
| --- | --- | --- | --- | --- | --- |
| COc1ccc2nccc(CC[C@H]3OC[C@H](NC(=O)c4ccc5c(n4)NC(=O)CS5)CO3)c2c1 | cytotoxicity | 24 h |  | IC50 | > 128 µg/mL |
| COc1ccc(S(=O)(=O)N(C)c2cc(OC)c(OC)cc2NC(C)=O)cc1 | cell growth or viability, XTT | 72 h |  | IC50 | 51 µM |
| NC(=O)c1cccc(NC(=O)c2cc(-c3cccs3)n(-c3ccc(Cl)cc3)n2)c1 | cell growth or viability |  |  | CC50 | > 100 µM |
| COc1ccc2ncc(F)c(CC[C@@]3(O)CO[C@@H]4[C@@H](NCc5ccc(Cl)c(Cl)c5)CO[C@@H]43)c2n1 | cytotoxicity | 24 h |  | IC50 | 30 µg/mL |
| N=C(N)NCCC[C@@H]1NC(=O)[C@H](CCCNC(=N)N)NC(=O)[C@H](CCCNC(=N)N)NC(=O)[C@H](CCCNC(=N)N)NC(=O)[C@H](Cc2ccc3ccccc3c2)NC(=O)[C@H](Cc2ccccc2)NC(=O)CCSSC[C@@H](C(=O)N[C@@H](CCCCNC(=S)Nc2ccc3c(c2)C(=O)OC32c3ccc(O)cc3Oc3cc(O)ccc32)C(N)=O)NC1=O | flow cytometry | concentration not given | relative to: linear peptide | internalisation increase | ~5 fold |
| N=C(N)NCc1ccc(CNC(=O)c2cc(-c3ccccc3)n(-c3ccccc3)n2)cc1 | cell growth or viability |  |  | CC50 | > 50 µM |
| CC(C)C[C@H](NC(=O)[C@H](C)NC(=O)[C@H](Cc1ccccc1)NC(=O)c1ccc(C(C)(C)C)cc1)C(=O)N[C@@H](CCCCN(C)C1CC2CCC1C2)C(=O)N[C@@H](CO)C(=O)NCCOCCOCCCCCCCl (stereo partly shown) | cell penetration, chloroalkane penetration | 4 h, chloroalkane-tagged compound |  | CP50 | 0.99 ± 0.27 µM |
| N=C(N)NCc1cccc(CNC(=O)c2cc(-c3ccccc3)n(-c3ccccc3)n2)c1 | cell growth or viability |  |  | CC50 | > 50 µM |
| COc1ccc2nccc(CC[C@H]3OC[C@H](NC(=O)c4ccc(Cl)cc4)CO3)c2c1 | cytotoxicity | 24 h |  | IC50 | 17.7 µg/mL |
| CCN(CCCC[C@H](NC(=O)[C@H](CCCN)NC(=O)[C@@H](NC(=O)[C@H](Cc1ccccc1)NC(=O)c1ccc(C(C)(C)C)cc1)C1CCC1)C(=O)N[C@@H](CO)C(=O)NCCOCCOCCCCCCCl)C1CC2CCC1C2 (stereo partly shown) | cell penetration, chloroalkane penetration | 4 h, chloroalkane-tagged compound |  | CP50 | 13 ± 2.6 µM |
| O=C(c1cc(-c2ccccc2)n(-c2ccccc2)n1)N(Cc1ccccn1)CC1CCCO1 (stereo not shown) | cell growth or viability |  |  | CC50 | > 100 µM |
| CCC(=CCc1c(O)cc2c(c1O)C(=O)CC(c1cc(OC)ccc1O)O2)CC (stereo not shown) | cytotoxicity, MTT | 48 h, added: S9 fraction |  | log IC50 | > 2 log µM |
| CN(CCCC[C@H](NC(=O)[C@H](CCCN1CCOCC1)NC(=O)[C@@H](NC(=O)[C@H](Cc1ccccc1)NC(=O)c1ccc(C(C)(C)C)cc1)C1CCC1)C(=O)N[C@@H](CO)C(=O)NCCOCCOCCCCCCCl)C1CC2CCC1C2 (stereo partly shown) | cell penetration, chloroalkane penetration | 4 h, chloroalkane-tagged compound |  | CP50 | 12 ± 0.97 µM |
| COc1ccc(CCNC2=CC3=[N+](C)CCc4c[nH]c(c43)C2=O)cc1 | cell growth or viability, MTT | 72 h |  | CC50 | 0.2 µM |
| CN1CCCNC(=O)c2cccc(c2)C(=O)NCCCN(C)CCCNc2cccc3c2C(=O)c2cccc(c2C3=O)NCCC1 | cell growth or viability, CCK-8 | 50 nM, 48 h |  | viability | 88.3% |
| NC[C@H]1O[C@H](O[C@H]2[C@H](O)[C@@H](O[C@H]3O[C@H](Cn4cc(CNC(=S)Nc5ccc6c(c5)C(=O)OC65c6ccc(O)cc6Oc6cc(O)ccc65)nn4)[C@@H](O)[C@H](N)[C@H]3O)[C@H](N)C[C@@H]2N)[C@H](O)[C@@H](O)[C@@H]1O | flow cytometry | 5 µM, 24 h |  | cellular uptake | 24 ± 10.6% |
| COc1cc(/C=C/C=C2\SC(=S)NC2=O)ccc1O | CellTiter-Glo | 10 µM, 24 h, unit not given | relative to: untreated | viability | 0.964 and 0.935 |
| Cc1c(C(=O)Nc2cccc(C(N)=O)c2)cnn1-c1ccccc1 | cell growth or viability |  |  | CC50 | > 50 µM |
| COc1ccc(C2CC(=O)c3c(cc(O)c(CC=C(C)C)c3O)O2)cc1 (stereo not shown) | cytotoxicity, MTT | 48 h, added: S9 fraction |  | log IC50 | > 2 log µM |
| O=C(O)c1cc(-c2ccccc2)n(-c2ccccc2)n1 | cell growth or viability |  |  | CC50 | > 50 µM |
| COc1ccc2nccc(CC[C@H]3OC[C@H](NC(=O)c4ccc(Cl)c(Cl)c4)CO3)c2c1 | cytotoxicity | 24 h |  | IC50 | 64.7 µg/mL |
| COc1ccc(S(=O)(=O)N(C)c2cc(OC)cc(C(=O)O)c2)cc1 | cell growth or viability, XTT | 72 h |  | IC50 | > 100 µM |
| S=c1n(-c2ccccc2)c2c3ccccc3nc3[n+]2[n]1[Ir-3]12([S]3)([c]3ccccc3-c3sc4ccccc4[n+]31)[c]1ccccc1-c1sc3ccccc3[n+]12 | ICP-MS | 10 µM, 24 h, 37 °C |  | cellular iridium uptake | 3.4 ± 0.11 fmol/cell |
| COC1=CC2=NCCc3c[nH]c(c32)C1=O | cell growth or viability, MTT | 72 h |  | CC50 | 10 µM |
| N#Cc1cc(NC(=O)c2cc(-c3ccccc3)n(-c3ccccc3)n2)ccc1N1CCCC1 | cell growth or viability |  |  | CC50 | > 50 µM |
| COc1ccc2ncc(F)c(C[C@H](O)[C@H]3OC[C@H](NCc4ccc(C)cc4)CO3)c2n1 | cytotoxicity | 24 h |  | IC50 | > 128 µg/mL |
| NC(=O)c1cccc(NC(=O)c2cc(-c3ccccc3)n(-c3ccc(Br)cc3)n2)c1 | cell growth or viability |  |  | CC50 | > 50 µM |
| CCC(=CCc1c(O)cc2c(c1O)C(=O)CC(c1ccc(O)cc1OC)O2)CC (stereo not shown) | cytotoxicity, MTT | 48 h, added: S9 fraction |  | log IC50 | 1.33 log µM |

Some of these lines once more:
| Compound | test | conditions | how to read | quantity | value |
| --- | --- | --- | --- | --- | --- |
| COc1ccc(C2CC(=O)c3c(cc(O)c(CC=C(C)C)c3O)O2)cc1 (stereo not shown) | cytotoxicity, MTT | 48 h, added: S9 fraction |  | log IC50 | > 2 log µM |
| COc1ccc2nccc(CC[C@H]3OC[C@H](NC(=O)c4ccc5c(n4)NC(=O)CS5)CO3)c2c1 | cytotoxicity | 24 h |  | IC50 | > 128 µg/mL |
